Published values collected from several papers.
Lines come from different studies, so protocols differ. Numbers after ± are the reported error.

SMILES	assay	test system	setting	measurement	value
OB(O)CSc1nc2ccccc2n1Cc1ccc(C(F)(F)F)cc1C(F)(F)F	–	mouse, thigh	subcutaneous, 25 mg/kg, 8 h	concentration	20000 ng/g
C[C@@H]1OC(=O)NN=C1c1ccc(-c2ccc(F)cc2)c(C(F)(F)F)c1	phase I trial, refers to: Nausea worst grade 1	human patients	5 mg loading then 0.25 mg daily	patients with adverse event	100%
O=C1OC[C@H]2OC(O)[C@H](O)[C@@H](O)[C@@H]2OC(=O)c2cc(O)c(O)c(O)c2-c2c(O)c(O)c3oc(=O)c4c(c(O)c(O)c5oc(=O)c2c3c54)-c2c1cc(O)c(O)c2O (mixture of isomers)	subacute oral toxicity	BALB/c mice	oral, 1000 mg/kg/day, 28 days	liver weight	1.3 g
CN1CC[C@@H](c2c(O)cc(O)c3c(=O)cc(-c4ccc(C(F)(F)F)cc4Cl)oc23)[C@@H]1CO	refers to: Chills	AML	oral, 100 mg, intermittent dosing	patients with adverse event	0%
Clc1ccc(-c2ccccc2)cc1	–	Sprague-Dawley rats, female, serum	inhalation, 23 µg/rat, 4 h after exposure	phosphorus	8 ± 1 mg/dL
O=C1Nc2cc3[nH]nc(-c4ccncc4)c3cc2CN1Cc1ccccc1	CTCAE v4.03	advanced solid tumour patients	intravenous, 1.8 mg/kg, schedules 1/2	patients with cough	0%
CC(C)NCCCC[C@@H]1NC(=O)[C@H](Cc2ccc(O)cc2)NC(=O)[C@H](Cc2ccccc2)NC(=O)CC[C@H](C(=O)N[C@@H](CCCCNC(C)C)C(=O)N[C@@H](CCCCNC(=O)[C@H](CCC(=O)O)NC(=O)[C@H](CCC(=O)O)NC(=O)[C@H](CCC(=O)O)NC(=O)CN2CCN(CC(=O)O)CCN(CC(=O)O)CC2)C(N)=O)NC(=O)CNC(=O)[C@H](Cc2ccc3ccccc3c2)NC(=O)[C@@H](CCCNC(=N)N)NC1=O [fluorine-18 labelled]	PET/CT	female CB17 SCID beige mice, subcutaneous MM.1S xenograft, tumour	intravenous, 1 h	standardized uptake value	1.18 ± 0.1 SUV
C[C@]1(CO)Cc2ncn(-c3ccc(C#N)c(Cl)c3)c2C(=O)O1	–	human, plasma	10 mg single dose, geometric mean	Cmax	416 nM
O=S(=O)(Nc1ccccc1)c1ccc(NC(=S)Nc2ccccc2)cc1	refers to: Glu	male mouse, blood	oral, 80 mg/kg daily, 14 days	blood chemistry level	209 mg/dL
O=c1nc(NO)ccn1[C@@H]1O[C@H](CO)[C@@H](O)[C@H]1O	–	rat amniotic fluid dialysate	1000 ng/mL, 6 h, 10 °C, high QC concentration, added: molnupiravir	autosampler stability	104 ± 2.12%
O=c1ccc2cc3ccoc3cc2o1	post-procedure stability	rat plasma	1000 ng/mL, 1 h, room temperature	accuracy	81.8%
COc1cc2c(Oc3ccc4[nH]c(C)cc4c3F)ccnc2cc1OCC1(N)CC1	–	paediatric recurrent refractory sarcoma	12 mg	Rash incidence	18.2%
O=C(O)CCc1ccccc1	–	–	pH 7.4, third measurement	logD	-0.67

A few entries again:
SMILES	assay	test system	setting	measurement	value
COc1cc2c(Oc3ccc4[nH]c(C)cc4c3F)ccnc2cc1OCC1(N)CC1	–	paediatric recurrent refractory sarcoma	12 mg	Rash incidence	18.2%
O=S(=O)(Nc1ccccc1)c1ccc(NC(=S)Nc2ccccc2)cc1	refers to: Glu	male mouse, blood	oral, 80 mg/kg daily, 14 days	blood chemistry level	209 mg/dL
